Measured values collected from several papers.
Converted amounts (≈) assume the structure as drawn.
UniProt P78362, sequence (whole entry, looked up): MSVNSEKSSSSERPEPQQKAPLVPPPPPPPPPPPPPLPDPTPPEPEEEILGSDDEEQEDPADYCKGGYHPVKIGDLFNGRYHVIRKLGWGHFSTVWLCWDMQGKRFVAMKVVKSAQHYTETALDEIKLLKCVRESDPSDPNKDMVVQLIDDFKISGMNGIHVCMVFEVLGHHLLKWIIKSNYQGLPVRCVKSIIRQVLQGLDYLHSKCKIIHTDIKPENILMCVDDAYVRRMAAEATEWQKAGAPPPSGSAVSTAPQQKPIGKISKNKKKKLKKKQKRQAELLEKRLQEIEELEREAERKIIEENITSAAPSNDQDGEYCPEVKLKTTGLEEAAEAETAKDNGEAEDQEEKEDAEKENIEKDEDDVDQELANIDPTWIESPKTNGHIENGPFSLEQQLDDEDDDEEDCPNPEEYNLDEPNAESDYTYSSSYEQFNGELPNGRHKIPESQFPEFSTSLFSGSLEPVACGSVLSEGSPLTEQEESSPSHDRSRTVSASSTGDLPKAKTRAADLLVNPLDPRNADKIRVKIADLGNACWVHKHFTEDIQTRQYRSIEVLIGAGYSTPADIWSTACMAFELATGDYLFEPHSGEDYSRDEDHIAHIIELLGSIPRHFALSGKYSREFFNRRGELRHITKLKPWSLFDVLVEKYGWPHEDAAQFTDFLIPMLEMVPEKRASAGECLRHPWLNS
UniProt P36894, sequence (whole entry, looked up): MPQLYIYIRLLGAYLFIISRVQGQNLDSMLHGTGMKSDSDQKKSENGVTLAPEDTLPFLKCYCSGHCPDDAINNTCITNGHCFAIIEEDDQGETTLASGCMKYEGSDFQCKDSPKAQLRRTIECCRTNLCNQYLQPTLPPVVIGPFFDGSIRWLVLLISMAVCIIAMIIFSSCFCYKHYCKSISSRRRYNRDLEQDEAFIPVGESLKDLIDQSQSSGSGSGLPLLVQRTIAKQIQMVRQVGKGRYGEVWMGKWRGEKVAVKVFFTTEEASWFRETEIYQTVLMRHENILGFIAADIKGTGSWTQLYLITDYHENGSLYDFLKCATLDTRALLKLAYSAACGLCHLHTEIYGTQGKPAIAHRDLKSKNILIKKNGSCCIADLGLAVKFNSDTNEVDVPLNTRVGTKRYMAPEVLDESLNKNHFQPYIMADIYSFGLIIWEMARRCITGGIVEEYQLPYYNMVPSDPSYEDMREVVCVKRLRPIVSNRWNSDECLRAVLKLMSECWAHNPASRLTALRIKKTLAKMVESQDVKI
UniProt P37023, sequence (whole entry, looked up): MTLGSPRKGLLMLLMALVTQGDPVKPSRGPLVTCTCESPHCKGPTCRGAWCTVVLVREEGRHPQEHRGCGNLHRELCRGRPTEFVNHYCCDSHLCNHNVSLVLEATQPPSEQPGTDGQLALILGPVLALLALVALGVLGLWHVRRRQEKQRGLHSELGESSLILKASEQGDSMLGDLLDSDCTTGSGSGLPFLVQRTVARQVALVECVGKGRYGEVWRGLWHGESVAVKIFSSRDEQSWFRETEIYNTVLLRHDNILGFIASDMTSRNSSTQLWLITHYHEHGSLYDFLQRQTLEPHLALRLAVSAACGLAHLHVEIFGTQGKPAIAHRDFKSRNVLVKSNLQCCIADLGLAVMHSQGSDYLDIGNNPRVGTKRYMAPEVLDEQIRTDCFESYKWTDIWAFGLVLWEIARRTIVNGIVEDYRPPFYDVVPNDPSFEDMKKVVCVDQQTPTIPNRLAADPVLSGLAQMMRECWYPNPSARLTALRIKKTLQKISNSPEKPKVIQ
UniProt Q96PN8, sequence (whole entry, looked up): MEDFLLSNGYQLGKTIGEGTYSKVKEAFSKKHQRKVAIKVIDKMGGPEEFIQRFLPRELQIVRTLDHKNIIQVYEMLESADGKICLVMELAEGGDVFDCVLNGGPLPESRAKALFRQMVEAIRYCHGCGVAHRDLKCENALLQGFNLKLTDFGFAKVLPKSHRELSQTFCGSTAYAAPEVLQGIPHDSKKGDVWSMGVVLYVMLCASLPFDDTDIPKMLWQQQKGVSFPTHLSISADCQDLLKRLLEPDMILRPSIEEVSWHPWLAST

SMILES | target or system | assay | test system | conditions | measurement | value
[2H]c1c([2H])c([C@]2([2H])CCCN2C(=O)C(C)(C)Oc2ccc3cn[nH]c3c2)c([2H])c([2H])c1C([2H])([2H])[2H] | Testis-specific serine/threonine-protein kinase 3 (TSSK3, Homo sapiens, UniProt Q96PN8) | binding, competition with immobilised ligand |  | 1 µM | remaining binding | 98%
N=c1c2c(-c3ccccc3)c(-c3ccccc3)n(Cc3ccccc3)c2ncn1[C@H]1CC[C@H](O)CC1 |  |  | male cynomolgus monkey, plasma | intravenous, 0.5 mg/kg, single dose | AUC(0-inf) | 15000 ng·h/mL
Nc1ncc(-c2nc(N3CCOCC3)nc(N3CCOCC3)n2)c(C(F)F)n1 | SRSF protein kinase 2 (SRPK2, Homo sapiens, UniProt P78362) | binding, competition with immobilised ligand |  | 10 µM | remaining binding | 100%
CC[C@H](C)[C@@H]1NC(=O)[C@H](CO)NC(=O)[C@H](CC(C)C)NC(=O)[C@H](CC(C)C)N(C)C(=O)[C@@H](Cc2ccc(O)cc2)NC(=O)[C@@H](Cc2ccc(O)cc2)NC(=O)CSC[C@@H](C(=O)O)NC(=O)CNC(=O)[C@@H](C(C)C)NC(=O)[C@H]2CCCN2C(=O)[C@H](C)NC1=O |  |  | aqueous buffer | pH 7.4 | solubility | 702 µM (≈ 879 µg/mL)
Cc1nn(C)cc1-c1nc2c(N3CCN(Cc4ccc(Cl)cc4)CC3)c(Cl)cnc2[nH]1 | Bone morphogenetic protein receptor type-1A (BMPR1A, Homo sapiens, UniProt P36894) | binding, competition with immobilised ligand |  | 1 µM | remaining binding | 62%
CC(C)C[C@@H]1NC(=O)[C@H](CCC(=O)O)NC(=O)[C@H]2CCCN2C(=O)[C@@H](N)CSSC[C@@H](C(=O)O)NC(=O)[C@H]2CCCN2C(=O)[C@@H](Cc2ccccc2)NC(=O)[C@H](CC(C)C)NC(=O)[C@H]([C@@H](C)O)NC(=O)[C@H](C(C)C)NC1=O |  |  | aqueous buffer | 18 h, pH 7.4 | solubility | 676 µM (≈ 757 µg/mL)
CN1CCN(S(=O)(=O)c2cc([N+](=O)[O-])ccc2N(CCOS(C)(=O)=O)CCOS(C)(=O)=O)CC1 |  |  | female SCID mouse, plasma | intraperitoneal, 10 mg/kg | half-life | 10.2 min
O=C/C=C/c1ccccc1 |  | metabolic stability | human, liver microsomes | 10 µM, pH 7.4 | half-life | 3.45 min
COc1ncccc1-c1cnn2ccc(N3CCN(C(=O)OC(C)C)CC3)nc12 | Activin receptor type-1-like (ACVRL1, Homo sapiens, UniProt P37023) | binding, competition with immobilised ligand |  | 1 µM | remaining binding | 100%
CC(C)C[C@@H]1NC(=O)[C@H](CCC(=O)O)NC(=O)[C@H]2CCCN2C(=O)[C@@H](N)CSSC[C@@H](C(=O)O)NC(=O)[C@@H]2CCCN2C(=O)[C@H](Cc2ccccc2)NC(=O)[C@H](CC(C)C)N(C)C(=O)[C@H]([C@@H](C)O)NC(=O)[C@H](C(C)C)NC1=O |  |  | aqueous buffer | 18 h, pH 7.4 | thermodynamic solubility | 741 µM (≈ 840 µg/mL)
NCCNC(=O)O[C@H]1CCC[C@@]2(C1)OOC1(O2)C2CC3CC(C2)CC1C3 (stereo partly shown) |  |  | male CD-1 mouse, plasma | oral, 10 mg/kg | Tmax | 120 min
CCCCCCCCCCCCCCCC(=O)NCCOC(=O)C[C@@H](CN)CC(C)C |  |  | mouse | oral, 2000 mg/kg, single dose | LD50 | > 2000 mg/kg
CC(C)C[C@H](NC(=O)[C@H](Cc1ccccc1)NC(=O)[C@H](Cc1ccccc1)NC(=O)Cc1ccc(-c2ccccc2)cc1)C(=O)N[C@@H](CCCCN)C(=O)N[C@@H](CCCNC(=N)N)C(=O)N[C@H](C(=O)N[C@@H](Cc1c[nH]c2ccccc12)C(=O)N[C@@H](CCCCN)C(=O)N[C@@H](CCCNC(=N)N)C(=O)O)C(C)C |  | metabolic stability | rat, liver microsomes | 5 min | compound remaining | 50.9%

A few entries again:
SMILES | target or system | assay | test system | conditions | measurement | value
N=c1c2c(-c3ccccc3)c(-c3ccccc3)n(Cc3ccccc3)c2ncn1[C@H]1CC[C@H](O)CC1 |  |  | male cynomolgus monkey, plasma | intravenous, 0.5 mg/kg, single dose | AUC(0-inf) | 15000 ng·h/mL
